Results from different studies.
Each numbered part is a random draw from the data of one study; scales do not carry over between parts. Positions count from the first letter of the parent shown.

Sample 1
Target: Sal-like protein 4, full length isoform A (SALL4, Homo sapiens, UniProt Q9UJQ4, residues 1-1053)
UniProt Q9UJQ4, sequence (whole entry, looked up): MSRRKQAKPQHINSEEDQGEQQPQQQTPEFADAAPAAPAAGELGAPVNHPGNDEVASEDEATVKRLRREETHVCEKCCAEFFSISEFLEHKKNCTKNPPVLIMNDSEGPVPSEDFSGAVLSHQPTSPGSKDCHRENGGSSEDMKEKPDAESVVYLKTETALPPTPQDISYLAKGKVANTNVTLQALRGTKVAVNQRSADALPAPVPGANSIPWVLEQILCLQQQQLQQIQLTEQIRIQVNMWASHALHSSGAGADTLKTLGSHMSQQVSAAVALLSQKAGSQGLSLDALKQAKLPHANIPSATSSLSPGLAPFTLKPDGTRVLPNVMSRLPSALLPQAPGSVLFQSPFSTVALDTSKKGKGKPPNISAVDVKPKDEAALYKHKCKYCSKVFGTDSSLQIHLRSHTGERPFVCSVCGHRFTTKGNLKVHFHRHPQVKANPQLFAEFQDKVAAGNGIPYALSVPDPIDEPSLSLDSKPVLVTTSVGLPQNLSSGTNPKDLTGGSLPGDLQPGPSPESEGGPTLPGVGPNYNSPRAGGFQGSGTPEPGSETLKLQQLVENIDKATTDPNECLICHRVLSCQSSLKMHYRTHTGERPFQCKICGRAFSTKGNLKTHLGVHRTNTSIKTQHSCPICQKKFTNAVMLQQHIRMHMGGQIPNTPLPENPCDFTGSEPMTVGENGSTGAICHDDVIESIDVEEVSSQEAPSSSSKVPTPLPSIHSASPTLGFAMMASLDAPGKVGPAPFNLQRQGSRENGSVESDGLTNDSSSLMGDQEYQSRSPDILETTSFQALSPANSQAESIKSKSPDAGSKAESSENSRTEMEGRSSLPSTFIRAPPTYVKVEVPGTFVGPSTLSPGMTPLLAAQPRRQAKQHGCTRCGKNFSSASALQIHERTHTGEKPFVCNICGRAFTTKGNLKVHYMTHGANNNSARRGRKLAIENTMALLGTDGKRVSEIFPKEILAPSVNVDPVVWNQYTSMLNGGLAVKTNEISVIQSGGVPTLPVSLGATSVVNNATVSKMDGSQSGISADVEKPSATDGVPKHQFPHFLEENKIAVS
Method: universal PBM
Form: double-stranded DNA, one strand shown
Sample: in vitro
Concentration: 600 nM
Setting: 8-mer, flanks averaged, mean of replicates
Direction: higher = stronger binding
Measurement: E-score
ACATTGAA: 0.292
AGGTTGGA: 0.00419
CCTACGGA: -0.167
GTATTCTA: 0.221
GTCCCGAC: -0.248
TAATCCAA: 0.261
ATAAGCCA: 0.178
GAAGGCTA: -0.0435
AAGCATGC: -0.0113
GAACCAGC: -0.099
AAACTCCA: 0.0348
CGGTTTAC: -0.104
GGGCTTCA: -0.207
GCCCACTA: -0.155
ACAACCCA: -0.0453
AGGGCATC: -0.322
CAGTTTGA: 0.00751
GAGTAATA: 0.323
ACATTACG: 0.188
CTAACTCC: -0.103
CTCAGTAC: -0.0325
ACAAGCCT: -0.0315
CTTACGAA: 0.138
ACTAATTC: 0.228
GCCCCCGC: -0.357

Sample 2
Target: ABI1, truncated, D143A, DHFR fusion (Arabidopsis thaliana)
Method: DHFR PCA, deep sequencing
Sample: yeast
Setting: methotrexate growth selection, single substitutions
With: (+)-ABA 0.032 µM
Relative to: wild-type fitted maximum
Direction: higher = stronger binding
Measurement: relative binding score
Starting sequence: PYL1, truncated, DHFR fusion (Arabidopsis thaliana); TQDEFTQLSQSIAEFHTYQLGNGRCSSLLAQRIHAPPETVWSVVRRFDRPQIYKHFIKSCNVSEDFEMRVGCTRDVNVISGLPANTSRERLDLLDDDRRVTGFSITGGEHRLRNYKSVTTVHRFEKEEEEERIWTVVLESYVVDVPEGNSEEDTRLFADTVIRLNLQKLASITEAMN
F5Q: 7.6%
L29C: 8.08%
G71H: 1.81%
T73M: 36.3%
R111N: 6.66%
T120N: 0.611%
A13C: 1.39%
E67H: 9.73%
T173A: 25.1%
A30R: 4.89%
G81H: -1.04%
E174H: -6.8%
P37M: -4.64%
E127R: 35.2%
T86M: 19.5%
R163K: 44.8%
T6Y: 30.2%

Sample 3
Target: CCNE2, cyclin fold, Cln2 fusion (human)
Method: yeast growth competition, sequencing
Sample: yeast
Setting: weak parent motif
Relative to: not given
Direction: higher = stronger binding
Measurement: normalised enrichment score
Starting sequence: CDC6 docking peptide (human); TLKGRRLVFDNQL; partner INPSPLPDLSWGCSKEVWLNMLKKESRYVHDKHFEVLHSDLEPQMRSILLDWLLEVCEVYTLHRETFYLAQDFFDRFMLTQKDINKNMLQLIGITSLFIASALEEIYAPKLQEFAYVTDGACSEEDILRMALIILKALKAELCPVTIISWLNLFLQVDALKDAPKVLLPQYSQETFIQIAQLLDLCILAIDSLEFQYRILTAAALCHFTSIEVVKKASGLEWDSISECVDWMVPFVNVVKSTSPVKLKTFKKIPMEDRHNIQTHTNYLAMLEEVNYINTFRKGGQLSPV
TLKGRRHVFDNQL [L7H]: 0.172
TLKGRRKVFDNQL [L7K]: 1.33
TLKTRRLVFDNQL [G4T]: -0.368
TLKYRRLVFDNQL [G4Y]: -0.348
TLKGRRLGFDNQL [V8G]: 0.96
TLKGRRLVFDYQL [N11Y]: 1.22
TLKGRRLVFDNQN [L13N]: 0.463
TLKGVRLVFDNQL [R5V]: 0.865
TLKGRRLEFDNQL [V8E]: 0.622
TLSGRRLVFDNQL [K3S]: 0.358
TLKGTRLVFDNQL [R5T]: 1.23
TGKGRRLVFDNQL [L2G]: 0.7
TLKGKRLVLDNQL [R5K F9L]: 0.285
TLKGRRLVFDKQL [N11K]: 0.396
TLKGRRLVFDNQR [L13R]: 0.386
TLKGRQLVFDNQL [R6Q]: 0.0352
TAKGRRLVFDNQL [L2A]: -0.208
TLKGRRLVFDNQD [L13D]: -0.126
TLKGRRQVFDNQL [L7Q]: 0.788

Sample 4
Target: Histone acetyltransferase KAT6A, both winged helices, GST fusion (KAT6A, Homo sapiens, UniProt Q92794, residues 1-181)
Method: protein binding microarray
Form: double-stranded DNA, one strand shown
Sample: in vitro
Concentration: not given
Setting: 8-mer, flanks averaged, mean of 2 arrays, mostly near background
Relative to: not given
Direction: higher = stronger binding
Measurement: E-score
Target sequence (chain): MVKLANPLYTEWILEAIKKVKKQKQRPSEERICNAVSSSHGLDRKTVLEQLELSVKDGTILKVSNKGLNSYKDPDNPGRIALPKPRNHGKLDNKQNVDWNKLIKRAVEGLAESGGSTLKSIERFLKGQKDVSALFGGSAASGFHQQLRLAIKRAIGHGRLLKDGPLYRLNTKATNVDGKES
GCGCACGA: 0.217
GGAACGCC: 0.134
AGGCTAAG: -0.139
GATCACGA: -0.0843
AAGCAAAA: -0.213
CATGTAGG: -0.0761
AATGGTGT: -0.16
AACAGTTC: 0.117
AACCGATG: 0.0542
ACTAAACA: -0.16
GAAATTCA: -0.00924
ACCTACTA: -0.0339
TCTTGCAA: 0.0518
AATGCGCC: 0.237
AAACAAGT: -0.0471
AATTGCGT: 0.222
GACTCAGA: -0.107
CTCTGGCA: -0.155
AGATCATC: -0.078
ACGGAATC: 0.307
ACAATCTA: -0.0671
ATCCTCCC: -0.093
ACCCAGAG: -0.187
AATCCCAT: -0.0957
AACTCCCT: -0.2

Sample 5
Target: RNA binding protein fox-1 homolog 2, RRM domain, GST-SBP tag (RBFOX2, Homo sapiens, UniProt O43251-10, residues 100-194)
Method: RNA Bind-n-Seq
Form: RNA
Sample: in vitro
Concentration: 365 nM
Setting: natural RNA segment, single round, ends assumed
Relative to: no-protein control
Direction: higher = stronger binding
Measurement: RBNS enrichment (R)
Shared flanks, not repeated: GGGAGUUCUACAGUCCGACGAUC … UGGAAUUCUCGGGUGCCAA
AGUAUCACCAGGCACUAUAUUUCAUCUUUGAGGCUUUUGUUAUACCAAGGAAUACUAUAUAAAGUAAUGAGACUGGUUUAAAGUAACAUGCCAGAACUUACGCAUCCAAU: 0.767
AGCCACUGUCUAGACCUCCUCCAUCAGAUGCCUAGGCCUCCUCCAUCAGAUACCUGGGCCUCCUCCAUCAGAUGUCUGGGCCUCCUCCAUCAGAUGUCUGGGCCUCCUCC: 0.377
GCUGCCAGUCACUGGUCUGGGGGGUGGAGGCCUGAGCUGAGGGCAGGGUGCCUGACCUGUGUGCCGGCUGCUCACUGCUGUGACCAGCAGCCGAGCCCUUGGCCCUAGCC: 0.449
GAGGUCACAUGCAGGACUGGGGUGGCCACUUGGCAGAGUCCUUGGGGUUCAGACCUCCACAGGCUAGGUAGCUCAGCUUGCUUACAGACUGGAGACAUUUUCUUGUGUGG: 0.724
GUGUACUUUUGGUCAUCCUGGGAUGCUUCUAACUUCACUGUGUGUAGGCGUUUGCCUUGGAAAUGUGGAAAGUGCUUUACUAAAUAAUAAAAUUAAUUUUGUUUACGAGU: 0.774
UGAGAAGCAAGAACUUUUUCGGCGCGUAAUGGAAGAUAACGAAGAGGUGUCGUUCUUUUGUGACGUCAGCGUAUGUGUACCUAUUCCUUUGUUUGCGGUGUACUGAGGGA: 1.89
AUAAGUGUUGGAGUAACACUUGCAUAAAAGAAUUUAAGGAGUGAUAGCUCUUUCUGUUCUGCCAUUCCCAACAUUCCUGGGGGAAAGGAGACUCAAUGAGUUAAUACUAU: 0.404
GAUGGGAUUUUUCAAAGCGGCCAACACUUCACUAAUGUUUCAAAUCAAAACCUUGAGGCUAAUAUUACACUCAGGCCACACUCAGCACUUGCCUCCUCUUGUUUACUGCC: 0.403

Some of these lines once more (sample 3):
TLKGRRHVFDNQL [L7H]: 0.172
TLKGRRKVFDNQL [L7K]: 1.33
TLKTRRLVFDNQL [G4T]: -0.368
TLKYRRLVFDNQL [G4Y]: -0.348
TLKGRRLGFDNQL [V8G]: 0.96
TLKGRRLVFDYQL [N11Y]: 1.22
TLKGRRLVFDNQN [L13N]: 0.463
TLKGVRLVFDNQL [R5V]: 0.865
TLKGRRLEFDNQL [V8E]: 0.622
TLSGRRLVFDNQL [K3S]: 0.358
TLKGTRLVFDNQL [R5T]: 1.23
TGKGRRLVFDNQL [L2G]: 0.7
